Assay results pooled from the literature.
Compare with care: the assays were run in different laboratories. ± gives the spread as reported.
UniProt P31749, sequence (whole entry, looked up): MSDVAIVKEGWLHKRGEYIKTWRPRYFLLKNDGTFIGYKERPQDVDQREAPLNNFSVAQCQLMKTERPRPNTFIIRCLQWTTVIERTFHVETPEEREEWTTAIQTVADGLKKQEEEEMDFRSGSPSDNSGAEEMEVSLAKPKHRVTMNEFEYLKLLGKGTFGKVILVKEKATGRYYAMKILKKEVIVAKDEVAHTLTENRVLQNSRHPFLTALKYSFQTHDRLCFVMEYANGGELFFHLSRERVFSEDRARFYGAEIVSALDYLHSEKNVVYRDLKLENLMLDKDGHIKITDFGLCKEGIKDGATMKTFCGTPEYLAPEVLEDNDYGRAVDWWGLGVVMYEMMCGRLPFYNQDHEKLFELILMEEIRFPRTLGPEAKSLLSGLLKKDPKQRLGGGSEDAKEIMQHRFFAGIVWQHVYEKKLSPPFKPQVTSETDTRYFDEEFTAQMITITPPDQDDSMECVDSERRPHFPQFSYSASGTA

Structure (SMILES)	target or system	assay	test system	conditions	scale	measurement	result
Cc1noc(C)c1Cn1cc(N2C(=O)CN(Cc3cccc(O[C@@H]4O[C@H](C(=O)O)[C@@H](O)[C@H](O)[C@H]4O)c3)C2=O)cn1			Sprague-Dawley rat, male	oral, 100 mg/kg of parent drug, 0.25 h		plasma concentration	5020 ng/mL
O=C1NC2(CC2)COc2ncc(F)cc2[C@H]2COCCN2c2ccn3ncc1c3n2	CHL			150 µg/mL, 4 h, with rat liver S9		structural aberrations with gaps	0.7%
CSCC[C@H](N)C(=O)N[C@@H](CO)C(=O)N[C@H](C(=O)N[C@@H](C)C(=O)NCC(=O)N[C@@H](CC(C)C)C(=O)N[C@@H](CCCCN)C(=O)N[C@@H](CCCCN)C(=O)N[C@@H](CCC(N)=O)C(=O)N[C@@H](Cc1c[nH]c2ccccc12)C(=O)N[C@@H](Cc1ccc(O)cc1)C(=O)N[C@@H](CCCCN)C(=O)N[C@@H](C)C(=O)N[C@@H](CO)C(=O)N[C@@H](CCC(N)=O)C(=O)N[C@@H](CC(C)C)C(=O)N[C@H](C(=O)N[C@@H](CO)C(=O)N[C@@H](CCC(=O)O)C(=O)N[C@@H](CCCCN)C(=O)N[C@H](C(=O)NCC(=O)NCC(=O)N[C@@H](C)C(N)=O)C(C)C)C(C)C)C(C)C			water			folding free energy	5.24 kcal/mol
Cc1ncsc1-c1ccc(C(C)NC(=O)C2CC(O)CN2C(=O)C(NC(=O)CCCCCCCCCCN2CCCC(Nc3ncc(Cl)c(Nc4ccccc4S(=O)(=O)C(C)C)n3)C2)C(C)(C)C)cc1 (stereo not drawn)	22Rv1	RNA-seq, refers to: VPS18 mRNA		concentration not given	reference: DMSO	log2 fold change	-1.04
COc1ccc(C2CC(Nc3ccc(-c4ccc(NC5=NN(C(C)=O)C(c6ccc(OC)cc6)C5)cc4)cc3)=NN2C(C)=O)cc1 (stereo not drawn)		shake flask UV/Vis	n-octanol/water			logP	6.36
COC1CN([C@H]2CC[C@H]([C@@]3(C)Oc4c(Cl)cc(C(=O)NCc5c(SC)cc(C)[nH]c5=O)c(C)c4O3)CC2)C1		RNA-seq, refers to: APBB2 mouse homolog	mouse, HT-1376 xenograft, whole blood	dose not given	reference: vehicle	log2 fold change	1.37
CC(=O)N([O-])CCCCCNC(=O)CCC(=O)N([O-])CCCCCNC(=O)CCC(=O)N([O-])CCCCCN.[89Zr+4]			0.9 % NaCl saline	7 days, pH 4.5, 37 °C		intact compound	96.2 ± 2.9%
CCc1cnc(NC(=O)c2cc(S(=O)(=O)N3CCOCC3)ccc2N(C)C2CCCC2)s1			mouse, blood	10 mg/kg, 3 doses		Neutrophils differential count	22%
O=C(Nc1cnccc1-c1ccc([18F])nc1)c1ccnc(NC(=O)C2CC2)c1		ex vivo gamma counting	GSK-3β transgenic mice, early-stage, salivary gland	intravenous, 120 min, mean, P-gp inhibitor pretreatment, together with: tariquidar 15 mg/kg iv		SUV	0.215
COc1cccc(OC)c1-c1cc(C(=O)NC2(C(=O)O)C3CC4CC(C3)CC2C4)nn1-c1ccc(C(=O)N(C)CCCN(C)CCCN(C)C(=O)[C@H](CCCCNC(=O)[C@H](CC(C)C)NC(=O)C2OC2C(=O)O)NC(=O)CN2CCN(CC(=O)[O-])CCN(CC(=O)[O-])CCN(CC(=O)[O-])CC2)cc1C(C)C.[177Lu+3] (mixture of isomers)			mouse HT-29 xenograft	4 h, biodistribution	reference: tumour over large intestine	tumour-to-large intestine ratio	9.66
CNS(=O)(=O)Nc1nccc(Cc2c(C)c3ccc(Oc4ncccc4F)cc3oc2=O)c1F	NCI-H209	cell viability		7 days		IC50	> 1 µM
CC[C@H](C)[C@@H]1NC(=O)[C@H](Cc2ccc(O)cc2)NC(=O)CCCSC[C@@H](C(=O)N(CC(=O)N[C@@H](CC(C)C)C(=O)NCC(N)=O)Cc2ccc(F)cc2)NC(=O)[C@H](CC(N)=O)NC(=O)[C@H](CCC(N)=O)NC1=O			human	intranasal, 300 µg single dose		subjects with any TEAE	17%
Cc1nn(-c2cccc(N)c2)c(=O)c2cnc(Nc3ccc(N4CCNCC4)cc3)nc12	AKT1 (Homo sapiens, UniProt P31749)	enzyme activity, inhibitor				IC50	3.6 µM
C/C(N)=N/C(=N\S(=O)(=O)c1ccc(C(F)(F)F)cc1)N1C[C@H](c2ccccc2)C(c2ccc(Cl)cc2)=N1			C57BL/6 mouse, male, heart	intravenous, 10 mg/kg	reference: heart over plasma	tissue/plasma ratio	~2
C=C(NC(=O)c1csc(-c2nc3c(cc2O)-c2nc(cs2)C(=O)NC(C(C)O)C(=O)NC(=C(C)OC)c2nc(cs2)C(=O)NC2c4nc(cs4)C(=O)NC(COC(=O)c4c5c6c(cccc6n4O)COC(=O)C(OC4CC(C)(O)C(N(C)C)C(C)O4)C2OC5)c2nc-3cs2)n1)C(N)=O (stereo not drawn)			female Sprague-Dawley rat, plasma	intravenous, 6 mg/kg, single dose, infusion		Tmax	4.8 min

Some of these lines once more:
Structure (SMILES)	target or system	assay	test system	conditions	scale	measurement	result
Cc1ncsc1-c1ccc(C(C)NC(=O)C2CC(O)CN2C(=O)C(NC(=O)CCCCCCCCCCN2CCCC(Nc3ncc(Cl)c(Nc4ccccc4S(=O)(=O)C(C)C)n3)C2)C(C)(C)C)cc1 (stereo not drawn)	22Rv1	RNA-seq, refers to: VPS18 mRNA		concentration not given	reference: DMSO	log2 fold change	-1.04
